Measured values from different studies.
Each numbered part is a random draw from the data of one study; scales do not carry over between parts.

Series 1
Target: UBE2D4 UBC core domain (UniProt Q9Y2X8)
Technique: yeast two-hybrid
Matrix: yeast
Setting: mostly zero background
Reference: not given
Reading: higher = stronger interaction
Measurement: lacZ reporter activity
B1: TRAF5 RING domain (UniProt O00463); chain FVERLEERYKCAFCHSVLHNPHQTGCGHRFCQHCILSLRELNTVPICPVDKEVIKSQEVFK
B2: RNF38 RING domain (UniProt Q9H0F5); chain PNNHQSEQTLCVVCMCDFESRQLLRVLPCNHEFHAKCVDKWLKANRTCPICRADASEVHRDS
B3: RC3H1 RING domain (UniProt Q5TC82); chain QAPQWTDFLSCPICTQTFDETIRKPISLGCGHTVCKMCLNKLHRKACPFDQTTINTDIELL
B4: RNF208 RING domain (UniProt Q9H0X6); chain SSAAAGEPLECPTCGHSYNVTQRRPRVLSCLHSVCEQCLQILYESCPKYKFISCPTCRRETVLFTDYG
B5: TRIM13 RING domain (UniProt O60858); chain MELLEEDLTCPICCSLFDDPRVLPCSHNFCKKCLEGILEGSVRNSLWRPAPFKCPTCRKETSATGINS
B6: TRIM43 RING domain (UniProt Q96BQ3); chain FSHAFQKELTCVICLNYLVDPVTICCGHSFCRPCLCLSWEEAQSPANCPACREPSPKMDFKT
B7: TRIML1 RING domain (UniProt Q8N9V2); chain LMENLREELTCFICLDYFSSPVTTECGHSFCLVCLLRSWEEHNTPLSCPECWRTLEGPHFQS
B8: TRIM4 RING domain (UniProt Q9C037); chain EAEDIQEELTCPICLDYFQDPVSIECGHNFCRGCLHRNWAPGGGPFPCPECRHPSAPAALRP
Construct (chain): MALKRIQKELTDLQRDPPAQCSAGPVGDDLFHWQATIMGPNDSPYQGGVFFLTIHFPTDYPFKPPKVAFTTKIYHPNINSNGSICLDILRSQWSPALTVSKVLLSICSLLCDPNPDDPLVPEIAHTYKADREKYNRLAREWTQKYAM
B1 (TRAF5 RING domain): 0
FQGDVDEDLICPICSGVLEEPVQAPHCEHAFCNACITQWFSQQQTCPVDRSVVTVAHLRP (RNF41 RING domain (UniProt Q9H4P4)): 0
B2 (RNF38 RING domain): 0
QVDKAVFHMQSVKCLKCQEQKRAVLPCQHAALCELCAEGSECPICQPGRAHTLQS (UNK RING domain (UniProt Q9C0B0)): 0
B3 (RC3H1 RING domain): 0
DHGAVGQEMCCPICCSEYVKGEVATELPCHHYFHKPCVSIWLQKSGTCPVCRCMFPPPL (PJA1 RING domain (UniProt Q8NG27)): 0
B4 (RNF208 RING domain): 0
ASLPTSEEDLCPICYAHPISAVFQPCGHKSCKACINQHLMNNKDCFFCKTTIVSVEDWE (RNF123 RING domain (UniProt Q5XPI4)): 0
B5 (TRIM13 RING domain): 0
B6 (TRIM43 RING domain): 0
B7 (TRIML1 RING domain): 0
B8 (TRIM4 RING domain): 0

Series 2
Target: Interferon regulatory factor 7, full length, phosphomimetic (IRF7, Homo sapiens, UniProt Q92985, residues 1-503, S471D/S472D/S475D/S476D/S477D/S483D/S484D/S487D)
Sequence of UniProt Q92985 (whole entry, unmodified, looked up): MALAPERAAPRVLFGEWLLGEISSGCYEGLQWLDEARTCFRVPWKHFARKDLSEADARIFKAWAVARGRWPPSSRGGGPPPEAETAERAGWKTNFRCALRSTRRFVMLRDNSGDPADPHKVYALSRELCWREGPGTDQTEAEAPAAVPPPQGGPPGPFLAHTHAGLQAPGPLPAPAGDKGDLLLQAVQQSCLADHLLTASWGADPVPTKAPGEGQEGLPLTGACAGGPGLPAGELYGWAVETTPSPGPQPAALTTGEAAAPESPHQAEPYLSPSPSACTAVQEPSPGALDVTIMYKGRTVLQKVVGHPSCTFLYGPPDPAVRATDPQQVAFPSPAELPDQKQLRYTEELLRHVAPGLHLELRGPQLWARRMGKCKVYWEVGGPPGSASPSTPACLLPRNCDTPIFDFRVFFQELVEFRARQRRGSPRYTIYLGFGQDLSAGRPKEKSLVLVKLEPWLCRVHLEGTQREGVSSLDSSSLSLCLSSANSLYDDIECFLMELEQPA
Technique: protein-binding microarray
Molecule type: double-stranded DNA, one strand shown
Matrix: in vitro
Tested at: 2200 nM top
Setting: 60-bp whole probe
Added: salmon DNA 0.4 mg/ml
Reference: random background probes
Reading: higher = stronger binding
Measurement: fitted relative affinity
Constant ends, left off below: GCCTAGCAC … GTCTTGATTCGCTTGACGCTGCTG
GACGGTCTCCTGCTGCTGACGTGCTAG: 0.335 z-score
TCAATTTCCACTTTCTTACTGTGCTAG: 4.01 z-score
GACGATAGCAGTCTCGAGACGTGCTAG: -0.11 z-score
GACGGACTCGGGTTTCGGGACGTGCTA: 1.49 z-score
TTAGCTATCGGTTTCGGTTAGTGCTAG: 6.86 z-score
CTCCTAATAAATATGAGACTGTGCTAG: 0.227 z-score
GGCGATTTCAGTTTCGAGACGTGCTAG: 5.26 z-score
GACGATATCCGTCTCGAGACGTGCTAG: 0.838 z-score

Series 3
Target: RNA binding protein fox-1 homolog 2, RRM domain, GST-SBP tag (RBFOX2, Homo sapiens, UniProt O43251-10, residues 100-194)
Technique: RNA Bind-n-Seq
Molecule type: RNA
Matrix: in vitro
Tested at: 365 nM
Setting: natural RNA segment, single round, ends assumed
Reference: no-protein control
Reading: higher = stronger binding
Measurement: RBNS enrichment (R)
Target sequence (chain): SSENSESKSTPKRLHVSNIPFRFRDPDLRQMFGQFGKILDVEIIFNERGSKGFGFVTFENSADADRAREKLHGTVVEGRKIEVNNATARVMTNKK
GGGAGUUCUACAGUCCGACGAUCAUGCUCCCCUGAGCUAUAACCCCAGAAACUCUGCACUUUAUCAAGAAAGGACCCCCUCCUUAUGGAUUGCCUUGGCUUUGACCCUGAGCUAAGGCUGGCCCUAUUCCAUCUGGAAUUCUCGGGUGCCAA: 0.963
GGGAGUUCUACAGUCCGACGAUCAAAUGUAUUUUAAAAUUUCACUCUGGCAUAUGAUUUAUCUAUCACCAUUACUUUUUUUUAAGUCACAAUUUCAGAAUUUUGGGACAUUUGCAUUCAAUUUACAGGUACCAUGGAAUUCUCGGGUGCCAA: 0.531
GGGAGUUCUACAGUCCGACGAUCUUACUGUUGUUCACAGAUGAAAACAGAUACGCUAGGGCUAGUUUUGAAAAACACUAAUUCUCUUCAGUCUUCUUUAGUGAAGACUUACACUUGCAAAGUCUGUGCCGCCUUGGAAUUCUCGGGUGCCAA: 0.334
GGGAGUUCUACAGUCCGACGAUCCUGUGCUCUGCCAUCCAUCCAGACAGAAACCAGCCCCAACGCCUCCAGUUCUGUUUUUGCAUCGUGACAAAGAGAGCACAGCCAAUUCUCAUGCUGGCUUCUUCAGAUACUGGAAUUCUCGGGUGCCAA: 1.33
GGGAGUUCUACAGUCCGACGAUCCUUCUAGAGCAAGGAAUUGACUUUUAGGAGCCGUUCUCCCCACAAGACACCACAUGACAAGGGGUAUAAGCCCCAGCCCUGCUCAUUCCCACUCACCAGCUGAGGUCUGUUGGAAUUCUCGGGUGCCAA: 0.423
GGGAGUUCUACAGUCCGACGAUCCUUAUAGACUAUAGGCAAUAAAGCUAACAAUAAACCUUAUUUAACACAAACCACAUCCAUAUCCUCUGUUCAUUUGAUUUUGGAAAAAGUAGCAUAUCCAGUAGUUUCAGUGGAAUUCUCGGGUGCCAA: 0.677
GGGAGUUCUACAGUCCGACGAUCCACUUAUUUUUUAAAGCGUCAUGUGAGAUAUUUUUUUAAACAAAACAAAAUAAUGGUAAUUAAAGAAGCAAAGCUUCAGCCAUACUAAGGGGUUUCUUGUCUGCAGAGUGUGGAAUUCUCGGGUGCCAA: 0.548
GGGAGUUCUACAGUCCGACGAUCGCAUGGGCUUUUGCUCCAUCACCGCAAAGUUCUGCAGGGGCCCUGGGCAGUGCUGGCCUGUCUGACGUGCUGCCCUUGGCCUCCUUGCUCUCCACGUGUGGAAGCGCAUCUGGAAUUCUCGGGUGCCAA: 0.963

Single results of other studies
NSTHNTPVY
binding (HLA class I histocompatibility antigen, A alpha chain, allele A*80:01 (Homo sapiens, UniProt P04439); peptide-MHC binding; peptide; concentration not given): inactive

Some of these lines once more (series 1):
ASLPTSEEDLCPICYAHPISAVFQPCGHKSCKACINQHLMNNKDCFFCKTTIVSVEDWE (RNF123 RING domain (UniProt Q5XPI4)): 0
B2 (RNF38 RING domain): 0
